Published values of several laboratories.
Protocols differ between the studies behind these lines. “And” joins repeats or separate records; there may be more than shown. ± gives the spread as reported.

With C#CCN(Cc1cnc2nc(N)nc(N)c2n1)c1ccc(C(=O)N2CCC(C(=O)OC)CC2)cc1 the mitochondrial toxicity was 1.07 ± 11.1% (786-O; high-content imaging, refers to: MitoTracker Red uptake; 10 µM).
Under “mTOR protein level”, O=C(COC(=O)c1ccccc1Nc1cccc(C(F)(F)F)c1)Nc1ccc(F)cc1 is recorded as 0.362 (RAW264.7; Western blot; concentration not given, 72 h, unit not given, together with: LPS; reference: control).
CC(C)n1nc(-c2ccc3oc(N)nc3c2)c2c(N)ncnc21 has an IC50 of 28.8 nM (HD-MB03; cell growth; 168 h, single agent).
The inhibition of Nc1cccc2c1C(=O)N([C@@H]1CCCNC1)C2=O is reported as 32% (RAW 264.7; refers to: nitrite; 30 µM, together with: LPS).
With O=C(/C=C/C=C/C=C/C1CCCCC1)NC1=C[C@@](O)(/C=C/C=C/C=C/C(=O)NC2=C(O)CCC2=O)[C@@H]2O[C@@H]2C1=O the GI50 was 20900 nM (RKO; cell growth, CellTiter-Glo; 78 h).
The growth percent of Cc1n[nH]c2nc(-c3ccc(Cl)cc3)c3c(NC(=O)c4ccccc4)nnc-3n12 is reported as 110% (A549/ATCC; NCI60 SRB; 10 µM).
Cc1cnc(NC2CCOCC2)nc1-n1cnc(C(=O)NC(CN)c2cc(F)cc(Cl)c2)c1 (centres unmarked) — result for “G1 phase cells”: 97.4% (A-375; flow cytometry; 1 µM, 72 h).
For O=C(O)/C=C/c1ccc(O)c(O)c1, mRNA level read “inhibited” (H9c2; real-time PCR, refers to: Tnf-α, Il-1β and Il-6; concentration not given, together with: H2O2).
The inhibition of Cc1ccc(Cn2cc(COc3cccc(Cc4cnc(NC(=O)CSc5nc(C)cc(C)n5)s4)c3)nn2)cc1 is reported as 32.7 ± 10.8% (HGC-27; cell viability, MTS; 10 µM).
Under “log2 fold change”, Cn1cc(-c2ccc(-c3cncc(Cl)c3N3CCC4(CCNC4=O)CC3)cc2)cn1 is recorded as 2.46 (COLO 205; gene expression, microarray, refers to: TNFRSF12A (FN14) mRNA; concentration not given, 2 h; reference: untreated cells).
Under “reversal of trafficking deficit”, Cc1onc(-c2ccccc2)c1-c1ccc(S(N)(=O)=O)cc1 is recorded as -16.6% (primary rat hippocampal/cortical neuron-glia cultures; 1 µM, together with: 1 µM α-synuclein oligomers).
With Cn1cnc2c(F)c(Nc3ccc(Br)cc3F)c(C(=O)NOCCO)cc21 the viability was 33% (A-375; 0.625 µM, 72 h).
The EC50 of CCn1cc(-c2cc(Cn3ccnc3)cc3c2CCN([C@H](c2cc(OC)ccn2)C2CC2)C3=O)c(C(F)(F)F)n1 is reported as 3250 nM (Calu-6; cell growth, inhibitor; 120 h).
Under “number of unchanged genes”, Cn1cc(Nc2nccc(-c3ccc4c(c3)CN(C3COC3)CC[C@H]4NC(=O)c3cn(C(C)(C)C)nn3)n2)cn1 is recorded as 1 (human B cells; 100 nM, 64 h, stimulation-upregulated genes, together with: anti-IgM).
CCCCc1oc2ccc(NS(C)(=O)=O)cc2c1C(=O)c1ccc(OCCCN(CCCC)CCCC)cc1 gave a fold change of 4.2 fold (human embryonic stem cell aggregates; mRNA level, microarray, refers to: ONECUT1; 0.5 µM, 120 h; reference: untreated, up-regulated).
Under “log2 fold change”, Cc1cc(Nc2ncc(Cl)c(Nc3ccccc3S(=O)(=O)C(C)C)n2)c(OC(C)C)cc1C1CCNCC1 is recorded as -1.71 (CLB-GE; phosphoproteomics LC-MS/MS, refers to: STAM2 phosphorylation; 200 nM, 60 min; reference: untreated).
The Emax of C[C@@H]1CN(C(=O)c2ccc(NC(=O)c3cc(O[C@H](C)c4c(Cl)ccc(F)c4Cl)c(N)nn3)cc2)C[C@H](C)N1 is reported as 67% (NCI-H3122 (EML4-ALK variant 1); cell viability).
Cc1cccc(-c2[nH]c(CNc3ccccc3F)nc2-c2ccc3ncnn3c2)n1 has a viability of 23% (MM1.S pomalidomide-resistant; XTT; 2.5 µM; reference: untreated).
CC(C)NCC(O)c1ccc(O)c(O)c1 (centres unmarked) gave a sarcomere length of 1.8 µm (mouse ventricular cardiomyocytes; dose not given, 0.347 s).
NC(=O)NO: “concentration of maximum effect” 200 µM (mouse CD4 T cells triple reporter; flow cytometry, refers to: IFNγ-YFP; six days).
With Cn1c(Nc2nc3ccc(C(F)(F)F)cc3s2)nc2cc(C(=O)NCCOCCO)ccc21 the fold change was 1.69 (SH-SY5Y; RNA-seq, refers to: TNS1 mRNA; 5 µM, 5 h; reference: untreated cells).
For CCn1cc(-c2cc(Cn3ccoc3=N)cc3c2CCN([C@@H](C)c2cc(OC)ccn2)C3=O)c(C(F)(F)F)n1, the EC50 was 7.45 nM (COV504; cell growth, inhibitor; 120 h).
For Nc1ccccc1NC(=O)c1ccc(CNc2nccc(-c3cccnc3)n2)cc1, the IC50 was 324 nM (HD-MB03; cell growth; 168 h, DMSO).
COc1cnc2cccc(N3CCc4c(cc(Cn5ccnc5C)cc4-c4cn(C)nc4C(F)(F)F)C3=O)c2c1 has an EC50 of 2020 nM (HCT-8; cell growth, inhibitor; 120 h).
Under “early apoptotic cells”, COc1ccc(NC(=S)N/N=C/c2cccc3cc4ccccc4nc23)cc1 is recorded as 9.63 ± 1.1% (HeLa; annexin V/PI flow cytometry; IC50, 48 h).
CC(C)=CCC[C@@]1(C)C(CC[C@H]2[C@]3(C)CC[C@H](O)C(C)(C)O[C@H]3CC[C@@]2(C)O)=C(C)CC[C@H]1O: “intracellular [3H]-paclitaxel remaining” 58.9% (KB-C2 (P-gp overexpressing); drug efflux; 10 µM, 120 min).
CC(=O)O[C@H]1[C@H](OC(C)=O)[C@@H](Nc2cc3cccnc3c3ncccc23)OC[C@@H]1OC(C)=O gave a selectivity ratio of 10 (HFF-1 and PC-3; MTT; 48 h, dark; reference: IC50 HFF-1 over IC50 PC-3).
CC1(C)CCC(CN2CCN(c3ccc(C(=O)NS(=O)(=O)c4ccc(NCC5CCOCC5)c([N+](=O)[O-])c4)c(Oc4cnc5[nH]ccc5c4)c3)CC2)=C(c2ccc(Cl)cc2)C1 — result for IC50: “inactive” (HD-MB03; 168 h).
Cc1c(C(=O)O)ccc2c3n(nc12)[C@@H]1[C@H](C3)N(CC2CC2)[C@@]2(C(=O)Nc3cc(Cl)ccc32)[C@H]1c1cccc(Cl)c1F gave a GI50 of 1.94 nM (RKO; cell growth, alamarBlue; unbound).
For Nc1ncnc2c1ncn2[C@@H]1O[C@H](CO)[C@@H](O)[C@H]1O, “log2 fold change” read 2.1 and 2.4 and 2.9 (activated human T cells; refers to: hypoxanthine; 50 µM; reference: DMSO).
For O=C(c1ccc2[nH]ccc2c1)N1CCN(S(=O)(=O)c2ccc3[nH]c(=O)oc3c2)CC1, “6-thio-GTP in RNA” read 881 a.u. (HL-60; NUDT15 inhibitor, mass spectrometry; 10 µM, 16 h, together with: 6-thioguanine 1 µM; higher = more incorporation).
For C=CCn1c(=O)c2cnc(Nc3ccc(N4CCN(C)CC4)cc3)nc2n1-c1ccc2c(n1)[C@@](O)(CC)CC2, “S phase mitotic cells” read 1.53% (NCI-H1048; flow cytometry; concentration not given).
Cc1nc(Nc2n[nH]c3c2CN(C(=O)N[C@H](CN(C)C)c2ccccc2)C3(C)C)c2sccc2n1 has an IC50 of 4.67 nM (HD-MB03; cell growth; single agent).
S=C([S][Au-][P+](CCCCCC[P+]([Au-][S]C(=S)n1cccn1)(c1ccccc1)c1ccccc1)(c1ccccc1)c1ccccc1)n1cccn1 gave a log TGI of > -4 log10 M (786-O; cell growth, NCI-60 screen; renal cancer).
CC(=O)O[C@H]1C(=O)[C@@]2(C)[C@H]([C@H](OC(=O)c3ccccc3)[C@]3(O)C[C@H](OC(=O)[C@H](O)[C@@H](NC(=O)c4ccccc4)c4ccccc4)C(C)=C1C3(C)C)[C@]1(OC(C)=O)CO[C@@H]1C[C@@H]2O has a viability of 95.9% (CHP-212 resistant sublines, USP7 V517F heterozygous; 0.004572 µM).
CC1(C)CN=C(N2CCN(c3ncnc4sc(CC(F)(F)F)cc34)CC2)S1 — result for “fold change in IC50”: 0.674 (HD-MB03; concentration not given, together with: ribociclib NG; reference: ribociclib over DMSO).
Nc1cccc2c1C(=O)N(C1CCC(=O)NC1=O)C2=O (centres unmarked) — result for “surface marker level”: 50.1% (RPMI-8226; flow cytometry, refers to: CD14; concentration not given; reference: comparator compound alone).
COc1cc(Br)c(Nc2nc(-c3c(C)nc4ncccn34)cs2)c(Br)c1: “fold change in IC50” 1.55 (HD-MB03; concentration not given, together with: ribociclib NG; reference: ribociclib over DMSO).
The protein level of CC/C(=N\NC(=O)NCc1cccc(O)c1)c1ccc(O)c(C)c1O is reported as 1.62 ± 0.63 (SK-OV-3; Western blot, refers to: YAP; 10 µM, 1 h, 2D culture, unit not given; reference: β-actin).
O=C1[C@H](Cc2ccc(O)cc2)N2C(=O)CCN(C(=O)NCc3ccccc3)[C@H]2CN1Cc1cccc2ccccc12 — result for “fold change in IC50”: 0.482 (HD-MB03; concentration not given, together with: ribociclib NG; reference: ribociclib over DMSO).
Cc1nn(-c2nc3c(F)cc(F)cc3s2)c(O)c1C(c1ccc(C(F)(F)F)cc1)c1c(C)nn(-c2nc3c(F)cc(F)cc3s2)c1O: “phospho-TBK1 to TBK1 ratio” 0.684 and 0.806 and 0.856 (THP1-Dual; western blot; 20 µM, together with: cGAMP; reference: DMSO).
O=C(NOC[C@H](O)CO)c1ccc(F)c(F)c1Nc1ccc(I)cc1F gave a viability of 20.1% (A-375; 0.07813 µM, 72 h).
For COc1ccc(CNC(=O)c2ccc(CNCc3cnc4nc(N)nc(N)c4n3)cc2)cc1OC, the mitochondrial toxicity was -1.65 ± 32.6% (786-O; high-content imaging, refers to: MitoTracker Red uptake; 10 µM).
For C[C@H](Nc1ccc2c(c1)OCCn1cc(N3C(=O)OC[C@H]3C(F)F)nc1-2)C(N)=O, “Hill coefficient GR curve” read 0.538 (NCI-H596; cell growth, CellTiter-Glo; 120 h).
For CNC(=C[N+](=O)[O-])NCCSCc1csc(CN(C)C)n1, “reversal of trafficking deficit” read 8.07% (primary rat hippocampal/cortical neuron-glia cultures; 1 µM, together with: 1 µM α-synuclein oligomers).
With CN(C)C(=O)c1cc2cnc(Nc3ccc(N4CCNCC4)cn3)nc2n1C1CCCC1 the IC50 was 3570 nM (HD-MB03; cell growth; 168 h, DMSO).
The fold change of C=Cc1c2[n-]c(c1C)/C=c1\[n-]/c(c(C)c1C=C)=C\c1[n-]c(c(CCC(=O)O)c1C)/C=c1\[n-]c(c(C)c1CCC(=O)O)=C2.[Sn+4] is reported as 1.78 (SH-SY5Y; RNA-seq, refers to: FAM83G mRNA; 5 µM, 5 h; reference: untreated cells).
